Measured values from different studies.
Each line is one published result; not all experiments were run side by side. “And” joins repeats or separate records; there may be more than shown. ± gives the spread as reported.

`CC(C)C[C@H](NC(=O)[C@@H](CCCCNC(=O)[C@@H](Cc1ccccc1)NC(=O)CCCCCCCNC(=O)CN1CCN(CC(=O)O)CCN(CC(=O)O)CCN(CC(=O)O)CC1)NC(=O)[C@H](Cc1ccc(O)cc1)NC(=O)[C@H](CO)NC(=O)[C@H](Cc1c[nH]c2ccccc12)NC(=O)[C@H](Cc1c[nH]cn1)NC(=O)[C@@H]1CCC(=O)N1)C(=O)N[C@@H](CCCNC(=N)N)C(=O)N1CCC[C@H]1C(=O)NCC(N)=O` [indium-111 labelled] has a tissue uptake of 2.37 ± 0.15 %ID (male athymic nude mice, DU-145 prostate cancer xenograft, intestines; intravenous, 0.037 MBq, 4 h).
The tissue uptake of `CCCC[C@H](NC(=O)COCCOCCNC(=O)CN1CCN(CC(=O)O)CCN(CC(=O)O)CC1)C(=O)N[C@H]1CC(=O)NCCCC[C@@H](C(N)=O)NC(=O)[C@H](Cc2c[nH]c3ccccc23)NC(=O)[C@H](CCCNC(=N)N)NC(=O)[C@@H](Cc2ccccc2)NC(=O)[C@H](Cc2c[nH]cn2)NC1=O` [fluorine-18 labelled] is reported as 0.14 ± 0.02 %ID/g (C57 mice B16-F10 melanoma, brain; intravenous, 0.37 MBq, 0.5 h).
For `COc1ccc2c(c1)C(C)(C)C(/C=C/C1=C(Oc3ccc(C(=O)NCCCCOc4cc(CN(Cc5ccccn5)Cc5ccccn5)cc(CN(Cc5ccccn5)Cc5ccccn5)c4)cc3)C(=C/C=C3/N(CCCCS(=O)(=O)[O-])c4ccc(OC)cc4C3(C)C)CCC1)=[N+]2CCCCS(=O)(=O)[O-].O=[N+]([O-])[O-].O=[N+]([O-])[O-].[99Tc+].[C-]#[O+].[C-]#[O+].[C-]#[O+].[Zn+2]`, the tissue uptake was 23.4 %ID/g and 19 %ID/g and 20 %ID/g (healthy BALB/c mice, liver; 12 h).
The tissue uptake of `CCCC[C@H](NC(=O)CNC(=O)CNC(=O)[C@H](CCCCNC(=O)[C@H](CCN)NC(=O)C(C)c1ccc(CC(C)C)cc1)NC(=O)CN1CCN(CC(=O)O)CCN(CC(=O)O)CCN(CC(=O)O)CC1)C(=O)N[C@H]1CC(=O)NCCCC[C@@H](C(N)=O)NC(=O)[C@H](Cc2c[nH]c3ccccc23)NC(=O)[C@H](CCCNC(=N)N)NC(=O)[C@@H](Cc2ccccc2)NC(=O)[C@H](Cc2c[nH]cn2)NC1=O` (stereo partly shown) [lutetium-177 labelled] is reported as 0.95 ± 0.08 %ID/g (C57 mice, tumour-bearing, skin; 2 h).
`O=C(NCC1OC2CCC=CCCC2O1)c1ccc([18F])nc1` (stereo not shown) has a tissue uptake of 0.8 ± 0.2 %ID/g (female BALB/c nude mice, LS174T tumour, blood; intravenous, 60 min, with: unmodified CC49 24 h before).
`COc1ccc(Nc2nc(Nc3ccc(OCCOCC[18F])cc3)ncc2Br)cc1` gave a tissue uptake of 6.73 ± 0.11 %ID/g (ICR mice, S180 tumour-bearing, kidney; intravenous, 370 kBq, 120 min).
`O=C(NCC1OC2CCC=CCCC2O1)c1ccc(COCCOCCOCC[18F])cc1` (stereo not shown) has a tissue uptake of 2.5 ± 0.7 %ID/g (healthy female BALB/c nude mice, skin; intravenous, 7.4 MBq per mouse, 60 min).
`Cc1cc(C)n(CCN(CCN)CCCCCCNC(=O)[C@@H](N)Cc2c[nH]cn2)n1.[99Tc+].[C-]#[O+].[C-]#[O+].[C-]#[O+]` has a tissue uptake of 2.8 ± 0.58 %IA/g (BALB/c nude mice, A549 xenograft, blood; intravenous, 15 min).
The tissue uptake of `O=C(O)CCCOc1ccc([18F])cc1-c1cc(-c2ccccc2C(F)(F)F)n(-c2ccccc2)n1` is reported as 0.06 ± 0.01 %ID/g (mice, bladder and urine; intravenous, 15 min).
The tissue uptake of `N#C[C@@H]1CCCN1C(=O)CNC(=O)c1ccnc2ccc(OCCCN3CCN(C(=O)CCc4ccc5c(c4)CN4CCN(Cc6cc(CCC(=O)O)ccc6O)CC(=O)[O][Al-]([18F])([O]C(=O)C4)[O]5)CC3)cc12` (stereo partly shown) is reported as 1.27 ± 0.24 %ID/g (BALB/c nude mice, U-87 MG xenograft, kidney; 2 h).
`COc1ccc(Nc2nc(Nc3ccc(OCCOCCOCC[18F])cc3)ncc2Br)cc1` gave a tissue uptake of 2.65 ± 0.2 %ID/g (ICR mice, S180 tumour-bearing, muscle; intravenous, 370 kBq, 120 min).
`N#C[C@@H]1CCCN1C(=O)CNC(=O)c1ccnc2ccc(OCCCN3CCN(C(=O)CCc4ccc5c(c4)CN4CCN6CC(=O)[O][68Ga-]([O]C(=O)C4)([O]5)[O]c4ccc(CCC(=O)N5CCN(CCCOc7ccc8nccc(C(=O)NCC(=O)N9CCC[C@H]9C#N)c8c7)CC5)cc4C6)CC3)cc12` gave a tissue uptake of 1.03 ± 0.44 %ID/g (BALB/c nude mice, U-87 MG xenograft, bone; 1 h, blocking, with: DOTA-FAPI-04 40 nmol/mouse co-injected).
The tissue uptake of `O=C([O-])CN1CCN(CC(=O)[O-])CCN(CC(=O)NC[C@H]2CC[C@H](C(=O)N[C@H](Cc3cnc4ccccc4c3)C(=O)NCCCC[C@H](NC(=O)N[C@@H](CCC(=O)O)C(=O)O)C(=O)O)CC2)CCN(CC(=O)[O-])CC1.[64Cu+2]` is reported as 4.56 %ID/g (ex vivo gamma counting; 22Rv1 tumour-bearing mice, spleen; intravenous, 0.74 MBq, 24 h post-injection).
The tissue uptake of `CCCC[C@H](NC(=O)CNC(=O)CNC(=O)[C@H](CCCCNC(=O)[C@H](CC(=O)O)NC(=O)C(C)c1ccc(CC(C)C)cc1)NC(=O)CN1CCN(CC(=O)O)CCN(CC(=O)O)CCN(CC(=O)O)CC1)C(=O)N[C@H]1CC(=O)NCCCC[C@@H](C(N)=O)NC(=O)[C@H](Cc2c[nH]c3ccccc23)NC(=O)[C@H](CCCNC(=N)N)NC(=O)[C@@H](Cc2ccccc2)NC(=O)[C@H](Cc2c[nH]cn2)NC1=O` (stereo partly shown) [lutetium-177 labelled] is reported as 0.58 ± 0.12 %ID/g (C57 mice, tumour-bearing, lung; intravenous, 0.037 MBq, 4 h).
`CCCC[C@H](NC(=O)CCCCCCCNC(=O)CN1CCN(CC(=O)O)CCN(CC(=O)O)CC1)C(=O)N[C@H]1CC(=O)NCCCC[C@@H](C(N)=O)NC(=O)[C@H](Cc2c[nH]c3ccccc23)NC(=O)[C@H](CCCNC(=N)N)NC(=O)[C@@H](Cc2ccccc2)NC(=O)[C@H](Cc2c[nH]cn2)NC1=O` [fluorine-18 labelled] has a tissue uptake of 0.18 ± 0.13 %ID/g (C57 mice B16-F10 melanoma, pancreas; intravenous, 0.37 MBq, 2 h).
For `Cc1cc(C)n(CCN(CCN)CCCCCCNC(=O)[C@@H](N)Cc2c[nH]c3ccccc23)n1.[99Tc+].[C-]#[O+].[C-]#[O+].[C-]#[O+]`, the tissue uptake was 8.9 ± 1.56 %IA/g (BALB/c nude mice, A549 xenograft, intestine; intravenous, 15 min).

A few entries again:
`Cc1cc(C)n(CCN(CCN)CCCCCCNC(=O)[C@@H](N)Cc2c[nH]cn2)n1.[99Tc+].[C-]#[O+].[C-]#[O+].[C-]#[O+]` has a tissue uptake of 2.8 ± 0.58 %IA/g (BALB/c nude mice, A549 xenograft, blood; intravenous, 15 min).
`O=C(NCC1OC2CCC=CCCC2O1)c1ccc([18F])nc1` (stereo not shown) has a tissue uptake of 0.8 ± 0.2 %ID/g (female BALB/c nude mice, LS174T tumour, blood; intravenous, 60 min, with: unmodified CC49 24 h before).
